Results gathered from unrelated publications.
Every numbered part comes from another study and shows a few of its results, in no order. Positions count from the first letter of the parent shown.

Block 1
Target: Fragile X messenger ribonucleoprotein 1, C-terminal low-complexity region (Fmr1, Mus musculus, UniProt P35922)
Technique: RNA Bind-n-Seq
Form: RNA
Medium: in vitro
Concentration: 200 nM
Setting: whole 134-nt RNA, ends assumed
Added: 150 mM KCl
Baseline: input library
Direction: higher = stronger binding
Endpoint: log2 enrichment
Constant ends, left off below: GGGAGUUCUACAGUCCGACGAUC … UGGAAUUCUCGGGUGUCAAGG
CUCAAGUCCUGUGCUACACAUCGUAUGUACCGAAUCGGGAGGGGAGGGGAGGGAAAGUAUUAUGUUACGCCGUUCGGAUCUGCACUUCCA: 1.15
CACAGACAACACGCACCCACACAGACACAGAGGGAAGGGGUUGGGAUGGGGACAGGGUGCACUGCAGGGCGGGGUAGGACCCCAGCCCCU: 1.29
UGGCCCUGGUGGCAUGCGGGGAGGAAGAGGUGGCCUCAUGGAUCGUGGUGGUCCCGGUGGAAUGUUCAGAGGUGCCCGUGGUGGAGACAG: 0.208
AAGUCCUGUGCUACACAUCGUAUGUACCGAAUCGGUUUGGUUUUUUUGGAAAAAGGAAAGUAUUAUGUUACGCCGUUCGGAUCUGCACUU: -0.887
ACCAUGCAGGUGGGCAUCUUUGGGAAGUGGGGCAAGGGGGGGAUAGGGAGGGGCGUAACACUUUGGGAACAGGUGGUCCCAGGUCGUUUC: 0.801
UCCUCAAGUCCUGUGCUACACAUCGUAUGUACCGAAUCGGGAGGAGGAGGGAAAGUAUUAUGUUACGCCGUUCGGAUCUGCACUUCCAGC: -0.303
AGUCCUGUGCUACACAUCGUAUGUACCGAAUCGGUUUUUGGAAAAAGGUUUUUUUGGAAAGUAUUAUGUUACGCCGUUCGGAUCUGCACU: -1.34
UUCUCUAAGAGGAACUCCGGCGCGUCAGAGUAACAGAAGCGAGAGCACAGACAGUCUUGGGGGCUUGUCUCCCUCUGAAGUCACAGCCAU: -0.0579
ACCAUGCAGGUGGGCAUCUUUGGGAAGUGGGGCAAGGGGAGGAUAGGGAGGGGGGUAACACUUUGGGAACAGGUGGUCCCAGGUCGUUUC: 0.703
CCUGUGCUACACAUCGUAUGUACCGAAUCGGGCCCCCCCGGGGCCCCCCCGGCCCCCCCGGAAAGUAUUAUGUUACGCCGUUCGGAUCUG: -0.66

Block 2
Target: ABI1, truncated, D143A, DHFR fusion (Arabidopsis thaliana)
Technique: DHFR PCA, deep sequencing
Medium: yeast
Setting: methotrexate growth selection, single substitutions
Added: (+)-ABA 0 µM
Baseline: wild-type fitted maximum
Direction: higher = stronger binding
Endpoint: relative binding score
Parent: PYL1, truncated, DHFR fusion (Arabidopsis thaliana); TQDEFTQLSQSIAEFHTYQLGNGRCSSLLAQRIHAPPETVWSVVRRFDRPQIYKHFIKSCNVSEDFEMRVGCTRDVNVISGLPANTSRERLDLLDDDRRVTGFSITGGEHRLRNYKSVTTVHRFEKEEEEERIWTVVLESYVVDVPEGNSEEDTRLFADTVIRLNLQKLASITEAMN
A30F: 14.8%
Y53I: -1.05%
V142A: 15.4%
I133A: 31.8%
S140A: 7.22%
R163E: 6.21%
H110T: 44.8%
L28I: 65.3%
S27I: -1.99%
D3C: 13%
E127T: 31.2%
L93F: 5.02%
I33N: -1.5%
F56R: -1.02%
I57F: -5.54%
A170S: -4.22%
Y18T: -1.45%
E151H: 17.4%

Block 3
Target: Histone acetyltransferase KAT6A, winged helix 1, GST fusion (KAT6A, Homo sapiens, UniProt Q92794, residues 1-85)
Technique: protein binding microarray
Form: double-stranded DNA, one strand shown
Medium: in vitro
Concentration: not given
Setting: 8-mer, flanks averaged, mean of 2 arrays, mostly near background
Baseline: not given
Direction: higher = stronger binding
Endpoint: E-score
Construct (chain): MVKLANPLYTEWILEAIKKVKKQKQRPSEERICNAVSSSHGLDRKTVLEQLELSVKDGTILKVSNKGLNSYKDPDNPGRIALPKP
CATCGGAA: 0.0145
CAGGCGAC: 0.119
ATAAGAAC: -0.0944
TACGCCGA: 0.304
GAAGTGCC: -0.053
AAAGATTC: -0.241
AATTAAGT: -0.109
GGCCACAA: -0.0976
AATTGCAC: -0.18
AACATTGT: -0.12
ACAAAAGG: 0.00266
CTTTATGC: 0.0175
AAGGGATT: -0.0423
GCCGACTA: 0.125
AGGCCTCG: -0.0353
CGGTTGAG: 0.11
AAGAAACC: -0.0141
ATAACAAG: -0.14
AGTAATCA: -0.0652
ACAGGAGT: -0.162
CGTCTCAC: 0.0307
GCACACCA: -0.103
TACGACGA: -0.244
AAACGCGG: 0.294
AATGCAAA: -0.223

Block 4
Target: CCNB3, cyclin fold, Cln2 fusion (human)
Technique: yeast growth competition, sequencing
Medium: yeast
Setting: weak parent motif
Baseline: not given
Direction: higher = stronger binding
Endpoint: normalised enrichment score
Parent: CDKN1B docking peptide (human); PSACRNLFGPVDH; partner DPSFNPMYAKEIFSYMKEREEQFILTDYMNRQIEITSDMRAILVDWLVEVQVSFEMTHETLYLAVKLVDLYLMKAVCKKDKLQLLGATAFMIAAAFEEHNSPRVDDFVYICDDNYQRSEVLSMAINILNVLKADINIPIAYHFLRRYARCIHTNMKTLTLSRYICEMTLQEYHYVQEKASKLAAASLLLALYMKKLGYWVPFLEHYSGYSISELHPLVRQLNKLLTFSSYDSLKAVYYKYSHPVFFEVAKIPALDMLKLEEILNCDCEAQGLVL
P1W: 0.816
P10N: 0.541
A3E: 0.64
L7E: 0.00697
L7I: 0.623
P10Q: 0.407
C4K: 0.275
L7S: 0.27
P1Y: 0.437
C4E: 0.136
V11N: 0.404
F8A: -0.0442
P10W: 0.328
P1M: 0.29
A3S: 0.296

Block 5
Target: Max dimerization protein 1, bHLH-zipper, MAX partner unstated (MXD1, Homo sapiens, UniProt Q05195, residues 56-136)
Technique: protein-binding microarray
Form: double-stranded DNA, one strand shown
Medium: in vitro
Concentration: not given
Setting: k-mer, scored over probes, only values ≥0.25
Direction: higher = stronger binding
Endpoint: E-score
Target sequence (chain): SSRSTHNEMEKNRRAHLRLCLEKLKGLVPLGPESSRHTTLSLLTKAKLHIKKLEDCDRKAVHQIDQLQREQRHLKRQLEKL
AATGCATG: 0.378
CGTGTCCA: 0.278
GCATGGGA: 0.367
GCGTACAC: 0.286
ATAACACG: 0.329
GCATGGGC: 0.343
CGGGGAAC: 0.314
AGGGTGGG: 0.276
ACGCACGA: 0.332
ACCCCGTG: 0.419
ACCACATG: 0.466
CTCATGTC: 0.282
ACCCTCCC: 0.307

Excerpt of the above (block 2):
S27I: -1.99%
V142A: 15.4%
I57F: -5.54%
L93F: 5.02%
D3C: 13%
F56R: -1.02%
I33N: -1.5%
H110T: 44.8%
A170S: -4.22%
E151H: 17.4%
A30F: 14.8%
L28I: 65.3%
E127T: 31.2%
